Measured values pooled from the literature.
Organism: Pseudomonas aeruginosa

COc1ccc(-c2ccn(CC[C@](C)(C(=O)NO)S(C)(=O)=O)c(=O)c2)c(F)c1
MIC (PA-1955 MexEF-OprN producing): 2 µg/mL

CC[C@@H](C)[C@@H](NC(=O)[C@@H](C)NC(=O)[C@@H](CCCCN)NC(=O)[C@@H](CC(C)C)NC(=O)[C@@H](C)NC(=O)[C@H](NC(=O)[C@@H](Cc1c[nH]cn1)NC(=O)[C@@H](CC(C)C)NC(=O)[C@H](NC(=O)[C@H](NC(=O)[C@@H](CCCCN)NC(=O)[C@H](NC(=O)[C@@H](C)NC(=O)[C@@H](CO)NC(=O)[C@@H](CCCCN)NC(=O)[C@@H](Cc1ccccc1)NC(=O)[C@H](NC(=O)[C@@H](CCCCN)NC(=O)[C@@H](CC(C)C)NC(=O)[C@@H](Cc1ccccc1)NC(=O)[C@@H](CO)NC(=O)[C@@H](CCCCN)NC(=O)[C@@H](Cc1c[nH]c2ccccc12)NC(=O)[C@@H](CCCCN)NC(C)=O)[C@H](C)O)C(C)C)[C@H](C)O)C(C)C)[C@H](C)O)C(=O)N[C@H](CO)C(=O)N[C@H](CO)C(N)=O
MIC (broth microdilution; PAK; 24 h, 37 °C): 2.6 µM

CC(C)C[C@@H]1NC(=O)[C@@H](CC(C)C)NC(=O)[C@H](CCN)NC(=O)[C@@H](NC(=O)[C@H](CCN)NC(=O)[C@@H](N)[C@@H](C)O)CCNC(=O)[C@H]([C@@H](C)O)NC(=O)[C@H](CCN)NC(=O)[C@H](CCN)NC1=O
MIC (broth microdilution; ATCC 27853, CAMHB with polysorbate-80; 16 h): > 64 µg/mL

CC[C@@H](C)[C@@H](NC(=O)[C@@H](C)NC(=O)[C@@H](CCCCN)NC(=O)[C@@H](CC(C)C)NC(=O)[C@@H](CC(C)C)NC(=O)[C@H](NC(=O)[C@@H](CCCCN)NC(=O)[C@@H](CC(C)C)NC(=O)[C@@H](CCCCN)NC(=O)[C@@H](CCCCN)NC(=O)[C@@H](CCCCN)NC(=O)[C@@H](CCCCN)NC(=O)[C@@H](C)NC(=O)[C@@H](CCCCN)NC(=O)[C@@H](CO)NC(=O)[C@@H](Cc1ccccc1)NC(=O)[C@H](NC(=O)[C@@H](CCCCN)NC(=O)[C@@H](CC(C)C)NC(=O)[C@@H](Cc1ccccc1)NC(=O)[C@@H](CO)NC(=O)[C@@H](CCCCN)NC(=O)[C@@H](Cc1c[nH]c2ccccc12)NC(=O)[C@@H](CCCCN)NC(C)=O)[C@H](C)O)[C@H](C)O)C(=O)N[C@H](CO)C(=O)N[C@H](CCCCN)C(N)=O
MIC (broth microdilution; M2; 24 h, 37 °C): 5 µM

CC(C)CCCCC(=O)N[C@@H](CCN)C(=O)N[C@H](C(=O)N[C@@H](CCN)C(=O)N[C@H]1CCNC(=O)[C@H]([C@@H](C)O)NC(=O)[C@H](CCN)NC(=O)[C@H](CCN)NC(=O)[C@H](CC(C)C)NC(=O)[C@@H](Cc2ccccc2)NC(=O)[C@H](CCN)NC1=O)[C@@H](C)O
MIC (broth microdilution; PAO1; 37 °C): 0.25 µg/mL

COc1ccc2c(c1CC=C(C)C)O[C@H]1c3cc(CC=C(C)C)c(O)cc3OC[C@@H]21
MIC (ATCC 10145): 128 µg/mL

COc1ccc2ccc3c(c2c1)C=[N+]1C2CCCCC2[N+]2=Cc4c(F)cccc4[O][Au-]21[O]3.F[P-](F)(F)(F)(F)F (stereo not shown)
MIC (bacterial growth, broth microdilution; carbapenem-resistant; 24 h): > 20 µM

CCCCCCCCCc1nc2cc(Cl)ccc2c(=O)n1CCN
MIC (PAO1): inactive

N=C(N)NCCC[C@H](NC(=O)[C@H](CCCNC(=N)N)NC(=O)[C@H](CCCNC(=N)N)NC(=O)[C@@H](N)CCCNC(=N)N)C(=O)N[C@@H](Cc1c[nH]c2ccccc12)C(=O)N[C@@H](Cc1c[nH]c2ccccc12)C(=O)N[C@@H](Cc1c[nH]c2ccccc12)C(=O)O
MIC (broth microdilution; PAO1; 37 °C): 150 µg/mL

NCC1OC(OC2C(N)CC(N)C(OC3OC(CO)C(O)C(N)C3O)C2OCCCCCCCCCCCCn2cc(CNc3nc(NCc4cn(CCCCCCCCCCCCOC5C(OC6OC(CN)C(O)CC6N)C(N)CC(N)C5OC5OC(CO)C(O)C(N)C5O)nn4)nc(NCc4cn(CCCCCCCCCCCCOC5C(OC6OC(CN)C(O)CC6N)C(N)CC(N)C5OC5OC(CO)C(O)C(N)C5O)nn4)n3)nn2)C(N)CC1O (stereo not shown)
MIC (PAO1, CAMHB): 32 µg/mL

COc1cc(OC)c2c(c1)C(=O)c1cc3oc(=O)cc(-c4ccc(Cl)cc4)c3c(O)c1C2=O
MIC (microbial growth): 64 µg/mL

Oc1c(Br)ccc2cccnc12
MIC (microbial growth, agar dilution; ATCC27853): > 1140 µM

CC(C)C[C@H](NC(=O)[C@H](CC(N)=O)NC(=O)[C@H](CCCNC(=N)N)NC(=O)[C@@H](CC(C)C)NC(=O)[C@H](Cc1ccccc1)NC(=O)[C@H](CC(=O)O)NC(=O)[C@H](CCCCN)NC(=O)[C@@H](CC(C)C)NC(=O)[C@H](CCCNC(=N)N)NC(=O)[C@H](CCC(N)=O)NC(=O)[C@@H](NC(=O)[C@@H](CC(C)C)NC(=O)[C@H](CCCNC(=N)N)NC(=O)[C@H](CCCCN)NC(=O)[C@H](Cc1ccc(C(F)(F)F)cc1)NC(=O)CN)C(C)C)C(=O)N[C@H](C(N)=O)C(C)C
MIC (broth microdilution; PAO1): 25 µM

CC[C@@H](C)[C@@H](NC(=O)[C@@H](C)NC(=O)[C@@H](CCCCN)NC(=O)[C@@H](CC(C)C)NC(=O)[C@@H](CC(C)C)NC(=O)[C@H](NC(=O)[C@@H](CCCCN)NC(=O)[C@@H](CC(C)C)NC(=O)[C@@H](C)NC(=O)[C@@H](CCCCN)NC(=O)[C@@H](CCCCN)NC(=O)[C@@H](CCCCN)NC(=O)[C@@H](C)NC(=O)[C@@H](CCCCN)NC(=O)[C@@H](CO)NC(=O)[C@@H](Cc1ccccc1)NC(=O)[C@H](NC(=O)[C@@H](CCCCN)NC(=O)[C@@H](CC(C)C)NC(=O)[C@@H](Cc1ccccc1)NC(=O)[C@@H](CO)NC(=O)[C@@H](CCCCN)NC(=O)[C@@H](Cc1c[nH]c2ccccc12)NC(=O)[C@@H](CCCCN)NC(C)=O)[C@H](C)O)[C@H](C)O)C(=O)N[C@H](CO)C(=O)N[C@H](CCCCN)C(N)=O
MIC (broth microdilution; PAK; 24 h, 37 °C): 1.3 µM

COc1ccc2ccc3c(c2c1)C=[N+]1C2CCCCC2[N+]2=Cc4c(C)cccc4[O][Au-]21[O]3.F[P-](F)(F)(F)(F)F (stereo not shown)
MIC (bacterial growth, broth microdilution; carbapenem-resistant clinical isolate; 24 h): > 20 µM

CC[C@@H](C)[C@@H](NC(=O)[C@@H](C)NC(=O)[C@@H](CCCCN)NC(=O)[C@@H](CC(C)C)NC(=O)[C@@H](C)NC(=O)[C@H](NC(=O)[C@@H](CCCCN)NC(=O)[C@@H](CC(C)C)NC(=O)[C@H](NC(=O)[C@@H](CCCCN)NC(=O)[C@@H](CCCCN)NC(=O)[C@@H](CCCCN)NC(=O)[C@@H](C)NC(=O)[C@@H](CCCCN)NC(=O)[C@@H](CO)NC(=O)[C@@H](Cc1ccccc1)NC(=O)[C@H](NC(=O)[C@@H](CCCCN)NC(=O)[C@@H](CC(C)C)NC(=O)[C@@H](Cc1ccccc1)NC(=O)[C@@H](CO)NC(=O)[C@@H](CCCCN)NC(=O)[C@@H](Cc1c[nH]c2ccccc12)NC(=O)[C@@H](CCCCN)NC(C)=O)[C@H](C)O)C(C)C)[C@H](C)O)C(=O)N[C@H](CO)C(=O)N[C@H](CCCCN)C(N)=O
MIC (broth microdilution; PAK; 24 h, 37 °C): 2.6 µM

c1ccc(CN2CCOCCOCCN(CCCCCCCCCCN3CCOCCOCCN(CCCCCCCCCCN4CCOCCOCCN(Cc5ccccc5)CCOCCOCC4)CCOCCOCC3)CCOCCOCC2)cc1
MIC (FQR): > 100 µM

CC1=NN(CNc2ccc(C(=O)O)c(O)c2)C(=O)/C1=N/Nn1c(-c2ccccc2)nc2ccccc2c1=O
MIC (microbial growth, broth dilution; 24 h): 24.4 µM

COc1ccc2ccc3c(c2c1)C=[N+]1C2CCCCC2[N+]2=Cc4ccc(F)cc4[O][Au-]21[O]3.F[P-](F)(F)(F)(F)F (stereo not shown)
MIC (bacterial growth, broth microdilution; carbapenem-resistant; 24 h): 10 µM

CCn1cc(C(=O)NCCNCCO)c(=O)c2cc(OCc3ccc(C(C)(C)C)cc3)c(Cl)cc21
MIC (ATCC 27853; ≥80% growth inhibition): < 0.25 µg/mL

CO[C@@H](C(N)=O)[C@H](NC(=O)c1ccc(NC(=O)c2ccc([N+](=O)[O-])cc2)cc1)C(=O)Nc1ccc(C(=O)Nc2ccc(C(=O)Nc3ccc(C(=O)O)cc3)c(O)c2OC(C)C)cc1
MIC (PA14 ΔmexAB): 0.5 µg/mL

COc1ccc2c(c1CC=C(C)C)O[C@H]1c3cc4c(cc3OC[C@@]21O)OC(C)(C)C=C4
MIC (ATCC 10145): 128 µg/mL

N=C(N)NCCC[C@H](NC(=O)[C@H](Cc1c[nH]c2ccccc12)NC(=O)[C@H](CCC(N)=O)NC(=O)[C@H](Cc1c[nH]c2ccccc12)NC(=O)[C@H](CCCNC(=N)N)NC(=O)[C@@H](N)CCCNC(=N)N)C(=O)NCCCC[C@H](NC(=O)[C@H](CCCNC(=N)N)NC(=O)[C@H](Cc1c[nH]c2ccccc12)NC(=O)[C@H](CCC(N)=O)NC(=O)[C@H](Cc1c[nH]c2ccccc12)NC(=O)[C@H](CCCNC(=N)N)NC(=O)[C@@H](N)CCCNC(=N)N)C(=O)NCCCCCC(=O)N[C@@H](CSSC[C@H](NC(=O)CCCCCNC(=O)[C@H](CCCCNC(=O)[C@H](CCCNC(=N)N)NC(=O)[C@H](Cc1c[nH]c2ccccc12)NC(=O)[C@H](CCC(N)=O)NC(=O)[C@H](Cc1c[nH]c2ccccc12)NC(=O)[C@H](CCCNC(=N)N)NC(=O)[C@@H](N)CCCNC(=N)N)NC(=O)[C@H](CCCNC(=N)N)NC(=O)[C@H](Cc1c[nH]c2ccccc12)NC(=O)[C@H](CCC(N)=O)NC(=O)[C@H](Cc1c[nH]c2ccccc12)NC(=O)[C@H](CCCNC(=N)N)NC(=O)[C@@H](N)CCCNC(=N)N)C(N)=O)C(N)=O
MIC (broth microdilution; ATCC 27853; 24 h, 37 °C): 11 µM

CCOC(=O)c1ccc2c(c1)n(CC)[c]([Au-][Cl])[n+]2CC
MIC (broth dilution; PA7 DSM 24068; 20 h, 37 °C): > 30 µM

COc1ccc2ccc3c(c2c1)C=[N+]1C2CCCCC2[N+]2=Cc4cccc(OC)c4[O][Au-]21[O]3.F[P-](F)(F)(F)(F)F (stereo not shown)
MIC (bacterial growth, broth microdilution; carbapenem-resistant clinical isolate; 24 h): 10 µM

CC(C)C1=CC2=CCC3C(C)(C(=O)OCCC[N+](C)(C)C)CCCC3(C)C2CC1 (stereo not shown)
MIC (microbial growth, broth dilution; ATCC27853; 16 h): 62.5 µg/mL

COc1ccc2c(c1)C=[N+]1C3CCCCC3[N+]3=Cc4c(ccc5ccc(OC)cc45)[O][Au-]13[O]2.F[P-](F)(F)(F)(F)F (stereo not shown)
MIC (bacterial growth, broth microdilution; carbapenem-resistant clinical isolate; 24 h): > 20 µM

CC1(C)S[C@@H]2[C@H](NC(=O)[C@H](NC(=O)C3=C(O)C(c4ccccc4F)NC3=O)c3ccccc3)C(=O)N2[C@H]1C(=O)O (stereo partly shown)
MIC (broth microdilution; PAO1, Mueller-Hinton broth; without clavulanic acid): 25 µg/mL

For quick reference, copied from above:
COc1ccc2c(c1CC=C(C)C)O[C@H]1c3cc(CC=C(C)C)c(O)cc3OC[C@@H]21
MIC (ATCC 10145): 128 µg/mL

CC(C)C1=CC2=CCC3C(C)(C(=O)OCCC[N+](C)(C)C)CCCC3(C)C2CC1 (stereo not shown)
MIC (microbial growth, broth dilution; ATCC27853; 16 h): 62.5 µg/mL

COc1ccc2c(c1)C=[N+]1C3CCCCC3[N+]3=Cc4c(ccc5ccc(OC)cc45)[O][Au-]13[O]2.F[P-](F)(F)(F)(F)F (stereo not shown)
MIC (bacterial growth, broth microdilution; carbapenem-resistant clinical isolate; 24 h): > 20 µM

CCOC(=O)c1ccc2c(c1)n(CC)[c]([Au-][Cl])[n+]2CC
MIC (broth dilution; PA7 DSM 24068; 20 h, 37 °C): > 30 µM
